# Assay results gathered from unrelated publications.
# Each line is one published result; not all experiments were run side by side. Several values in a cell are separate wells, animals, samples, runs or records. Numbers after ± are the reported error.
# Organism: Escherichia coli
SMILES,assay,system,conditions,scale,quantity,result
CCCCCCCCCC(=O)Oc1c(C)c(OC)c2c(c1C)OC(=O)C(CCCCCCCC)C2(O)C=Cc1ccccc1 (stereo not drawn),"microbial growth, well diffusion",ATCC25922,5 µg/mL,,inhibition zone,11 mm
CC(C)C[C@H](NC(=O)[C@H](Cc1ccc(O)cc1)NC(=O)[C@@H]1CCCN1C(=O)[C@H](CCCNC(=N)N)NC(=O)[C@@H]1CCCN1C(=O)[C@H](CCCCN)NC(=O)[C@H](CC(=O)O)NC(=O)[C@@H]1CCCN1C(=O)[C@H](CCCNC(=N)N)NC(=O)C1(N)CCCCC1)C(=O)N1CCC[C@H]1C(=O)N[C@@H](CCCNC(=N)N)C(=O)N1CCC[C@H]1C(=O)N[C@@H](CCCNC(=N)N)C(=O)N1CCC[C@H]1C(=O)N1CCC[C@H]1C(=O)N[C@@H](CCCNC(=N)N)C(=O)N1CCC[C@H]1C(=O)N[C@H](C(=O)N[C@@H](CCCNC(=N)N)C(=O)N[C@@H](CSCc1ccc(CSC[C@H](NC(=O)[C@H](CCCNC(=N)N)NC(=O)[C@@H](NC(=O)[C@@H]2CCCN2C(=O)[C@H](CCCNC(=N)N)NC(=O)[C@@H]2CCCN2C(=O)[C@@H]2CCCN2C(=O)[C@H](CCCNC(=N)N)NC(=O)[C@@H]2CCCN2C(=O)[C@H](CCCNC(=N)N)NC(=O)[C@@H]2CCCN2C(=O)[C@H](CC(C)C)NC(=O)[C@H](Cc2ccc(O)cc2)NC(=O)[C@@H]2CCCN2C(=O)[C@H](CCCNC(=N)N)NC(=O)[C@@H]2CCCN2C(=O)[C@H](CCCCN)NC(=O)[C@H](CC(=O)O)NC(=O)[C@@H]2CCCN2C(=O)[C@H](CCCNC(=N)N)NC(=O)C2(N)CCCCC2)C(C)C)C(=O)NN)cc1)C(=O)NN)C(C)C,"membrane disruption, propidium iodide uptake",25922,"90 min, 37 °C",,MDC,11.8 ± 0.6 µg/mL
O=C(CCCc1cn(C[C@H]2O[C@@H]3O[C@H]4[C@H](O)[C@@H](O)[C@@H](O[C@H]5[C@H](O)[C@@H](O)[C@@H](O[C@H]6[C@H](O)[C@@H](O)[C@@H](O[C@H]7[C@H](O)[C@@H](O)[C@@H](O[C@H]8[C@H](O)[C@@H](O)[C@@H](O[C@H]9[C@H](O)[C@@H](O)[C@@H](O[C@H]2[C@H](O)[C@H]3O)O[C@@H]9CO)O[C@@H]8CO)O[C@@H]7CO)O[C@@H]6CO)O[C@@H]5CO)O[C@@H]4CO)nn1)N[C@H]1CCOC1=O,"LuxR reporter, antagonist",DH5α sensor strain,"20 µM, added: OHHL 200 nM",,inhibition,3 ± 7%
CCCCCC(=O)Oc1c(C)c(OC)c2c(c1C)OC(=O)[C@@H](CCCC)[C@]2(O)/C=C/c1ccccc1 (relative stereo),"microbial killing, broth dilution",ATCC25922,,,MBC,> 5000 µg/mL
CC(CCCOC(=O)CCC[N+](C)(C)C)C1CCC2C3C(OC(=O)CCC[N+](C)(C)C)CC4CC(OC(=O)CCC[N+](C)(C)C)CCC4(C)C3CC(OC(=O)CCC[N+](C)(C)C)C12C (stereo not drawn),"microbial growth, disc diffusion",ATCC25922,"125 µg/disc, 24 h",,inhibition zone,8 mm
N.N.[Cl][Pt+].c1ccc2c(c1)cnc1ccccc12,ICP-MS,,"20 µM, 24 h",,cellular uptake,7.34%
O=C(CCCc1cn(C[C@H]2O[C@@H]3O[C@H]4[C@H](O)[C@@H](O)[C@@H](O[C@H]5[C@H](O)[C@@H](O)[C@@H](O[C@H]6[C@H](O)[C@@H](O)[C@@H](O[C@H]7[C@H](O)[C@@H](O)[C@@H](O[C@H]8[C@H](O)[C@@H](O)[C@@H](O[C@H]9[C@H](O)[C@@H](O)[C@@H](O[C@H]2[C@H](O)[C@H]3O)O[C@@H]9Cn2cc(CCCC(=O)N[C@H]3CCOC3=O)nn2)O[C@@H]8Cn2cc(CCCC(=O)N[C@H]3CCOC3=O)nn2)O[C@@H]7Cn2cc(CCCC(=O)N[C@H]3CCOC3=O)nn2)O[C@@H]6Cn2cc(CCCC(=O)N[C@H]3CCOC3=O)nn2)O[C@@H]5Cn2cc(CCCC(=O)N[C@H]3CCOC3=O)nn2)O[C@@H]4Cn2cc(CCCC(=O)N[C@H]3CCOC3=O)nn2)nn1)N[C@H]1CCOC1=O,"LuxR reporter, antagonist",DH5α sensor strain,"100 µM, added: OHHL 200 nM",,inhibition,59 ± 2%
CC(C)C1=CC2=CCC3C(C)(C(=O)OCCC[N+](C)(C)C)CCCC3(C)C2CC1 (stereo not drawn),"microbial growth, disc diffusion",ATCC25922,"250 µg/disc, 24 h",,inhibition zone,12 mm
OC[C@H]1O[C@@H]2O[C@H]3[C@H](O)[C@@H](O)[C@@H](O[C@H]4[C@H](O)[C@@H](O)[C@@H](O[C@H]5[C@H](O)[C@@H](O)[C@@H](O[C@H]6[C@H](O)[C@@H](O)[C@@H](O[C@H]7[C@H](O)[C@@H](O)[C@@H](O[C@H]1[C@H](O)[C@H]2O)O[C@@H]7CO)O[C@@H]6CO)O[C@@H]5CO)O[C@@H]4CO)O[C@@H]3CO,"LuxR reporter, antagonist",DH5α sensor strain,"20 µM, added: OHHL 200 nM",,inhibition,1 ± 3%
CC(CCCOC(=O)CCC[N+](C)(C)C)C1CCC2C3CCC4CC(OC(=O)CCC[N+](C)(C)C)CCC4(C)C3CC(OC(=O)CCC[N+](C)(C)C)C12C (stereo not drawn),"microbial growth, disc diffusion",ATCC25922,"62.5 µg/disc, 24 h",,inhibition zone,9 mm
OB(O)c1ccc(C(F)(F)F)s1,,,"100 µM, 10 h",reference: untreated,growth,90.6% and 77.3% and 94.7% and 121% and 87%
CO[C@@H]1[C@@H](OC)[C@H]2O[C@H]3[C@H](OC)[C@@H](OC)[C@@H](O[C@H]4[C@H](OC)[C@@H](OC)[C@@H](O[C@H]5[C@H](OC)[C@@H](OC)[C@@H](O[C@H]6[C@H](OC)[C@@H](OC)[C@@H](O[C@H]7[C@H](OC)[C@@H](OC)[C@@H](O[C@@H]1[C@@H](Cn1cc(CCCC(=O)N[C@H]8CCOC8=O)nn1)O2)O[C@@H]7Cn1cc(CCCC(=O)N[C@H]2CCOC2=O)nn1)O[C@@H]6Cn1cc(CCCC(=O)N[C@H]2CCOC2=O)nn1)O[C@@H]5Cn1cc(CCCC(=O)N[C@H]2CCOC2=O)nn1)O[C@@H]4Cn1cc(CCCC(=O)N[C@H]2CCOC2=O)nn1)O[C@@H]3Cn1cc(CCCC(=O)N[C@H]2CCOC2=O)nn1,"LuxR reporter, antagonist",DH5α sensor strain,"4 µM, added: OHHL 200 nM",,inhibition,10 ± 2%
C=CCOc1c(C)c(OC)c(C(=O)/C=C/c2ccccc2)c(OCC=C)c1C,"microbial killing, broth dilution",ATCC25922,,,MBC,> 5000 µg/mL
COc1cc2c(cc1OC)-c1cc3ccc(OC)c(OC)c3c[n+]1CC2.[Cl][Fe-]([Cl])([Cl])[Cl],,,"24 h, 37 °C",,MBC,> 800 µM
N=C(N)NCCC[C@@H]1NC(=O)[C@H](CCCNC(=N)N)NC(=O)[C@@H](C(c2ccccc2)c2ccccc2)NC(=O)[C@H](Cc2c[nH]c3ccccc23)NC(=O)[C@@H](C(c2ccccc2)c2ccccc2)NC(=O)[C@@H](CCCNC(=N)N)NC(=O)[C@@H](CCCNC(=N)N)NC1=O,,ATCC BAA-2452,4 x MIC,,time to complete killing,2 h
CC[C@H](C)[C@H](NC(=O)[C@H](CC1CCCCC1)NC(=O)[C@@H](NC(=O)[C@@H](N)CCCN)c1ccccc1)C(=O)N[C@H](Cc1ccccc1)C(=O)N[C@@H](Cc1cn(Cc2ccccc2)cn1)C(N)=O,bacterial growth,ATCC 35218,,,IC50,> 20 µg/mL
O=C(Oc1cccccc1=O)c1ccc([N+](=O)[O-])cc1,"microbial growth, broth dilution",ATCC35218,,,MIC80,> 100 µM
CO[C@@H]1[C@@H](OC)[C@H]2O[C@H]3[C@H](OC)[C@@H](OC)[C@@H](O[C@H]4[C@H](OC)[C@@H](OC)[C@@H](O[C@H]5[C@H](OC)[C@@H](OC)[C@@H](O[C@H]6[C@H](OC)[C@@H](OC)[C@@H](O[C@H]7[C@H](OC)[C@@H](OC)[C@@H](O[C@H]8[C@H](OC)[C@@H](OC)[C@@H](O[C@@H]1[C@@H](Cn1cc(CCCC(=O)N[C@H]9CCOC9=O)nn1)O2)O[C@@H]8Cn1cc(CCCC(=O)N[C@H]2CCOC2=O)nn1)O[C@@H]7Cn1cc(CCCC(=O)N[C@H]2CCOC2=O)nn1)O[C@@H]6Cn1cc(CCCC(=O)N[C@H]2CCOC2=O)nn1)O[C@@H]5Cn1cc(CCCC(=O)N[C@H]2CCOC2=O)nn1)O[C@@H]4Cn1cc(CCCC(=O)N[C@H]2CCOC2=O)nn1)O[C@@H]3Cn1cc(CCCC(=O)N[C@H]2CCOC2=O)nn1,"LuxR reporter, antagonist",DH5α sensor strain,"200 µM, added: OHHL 200 nM",,inhibition,15 ± 2%
CCCC(=O)Oc1c(C)c(OC)c2c(/C=C/c3ccccc3)c(CC)c(=O)oc2c1C,"microbial killing, broth dilution",ATCC25922,,,MBC,> 5000 µg/mL
O=C(CCCc1cn(C[C@H]2O[C@@H]3O[C@H]4[C@H](O)[C@@H](O)[C@@H](O[C@H]5[C@H](O)[C@@H](O)[C@@H](O[C@H]6[C@H](O)[C@@H](O)[C@@H](O[C@H]7[C@H](O)[C@@H](O)[C@@H](O[C@H]8[C@H](O)[C@@H](O)[C@@H](O[C@H]2[C@H](O)[C@H]3O)O[C@@H]8Cn2cc(CCCC(=O)N[C@H]3CCOC3=O)nn2)O[C@@H]7Cn2cc(CCCC(=O)N[C@H]3CCOC3=O)nn2)O[C@@H]6Cn2cc(CCCC(=O)N[C@H]3CCOC3=O)nn2)O[C@@H]5Cn2cc(CCCC(=O)N[C@H]3CCOC3=O)nn2)O[C@@H]4Cn2cc(CCCC(=O)N[C@H]3CCOC3=O)nn2)nn1)N[C@H]1CCOC1=O,"LuxR reporter, antagonist",DH5α sensor strain,"200 µM, added: OHHL 200 nM",,inhibition,32 ± 1%
O=c1c(O)ccccc1Br,"microbial growth, broth dilution",ATCC35218,,,MIC80,66.7 µM
